Results gathered from unrelated publications.
Each line is one published result; not all experiments were run side by side. Numbers after ± are the reported error.
NMT1: Glycylpeptide N-tetradecanoyltransferase 1 (NMT1, Homo sapiens, UniProt P30419)
NR3C1: Glucocorticoid receptor (NR3C1, Homo sapiens, UniProt P04150)
ADORA1: Adenosine receptor A1 (ADORA1, Homo sapiens, UniProt P30542)

Protein sequences, listed by entry. Tags and fused reporters are not part of them. Residues count along the entry.
UniProt P30419, whole entry: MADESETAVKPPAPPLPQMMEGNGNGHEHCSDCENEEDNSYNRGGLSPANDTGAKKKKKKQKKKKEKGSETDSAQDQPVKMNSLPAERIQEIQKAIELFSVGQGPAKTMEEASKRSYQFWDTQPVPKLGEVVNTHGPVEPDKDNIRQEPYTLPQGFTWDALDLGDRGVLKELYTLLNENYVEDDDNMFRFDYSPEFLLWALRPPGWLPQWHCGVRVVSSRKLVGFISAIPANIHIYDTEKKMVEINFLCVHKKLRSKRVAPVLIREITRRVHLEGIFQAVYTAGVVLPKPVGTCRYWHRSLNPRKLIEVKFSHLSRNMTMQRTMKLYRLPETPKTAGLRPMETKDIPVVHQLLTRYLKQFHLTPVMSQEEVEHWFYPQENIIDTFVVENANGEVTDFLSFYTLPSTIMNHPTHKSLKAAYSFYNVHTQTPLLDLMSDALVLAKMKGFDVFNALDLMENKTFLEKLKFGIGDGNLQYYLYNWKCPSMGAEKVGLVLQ
UniProt P04150, whole entry: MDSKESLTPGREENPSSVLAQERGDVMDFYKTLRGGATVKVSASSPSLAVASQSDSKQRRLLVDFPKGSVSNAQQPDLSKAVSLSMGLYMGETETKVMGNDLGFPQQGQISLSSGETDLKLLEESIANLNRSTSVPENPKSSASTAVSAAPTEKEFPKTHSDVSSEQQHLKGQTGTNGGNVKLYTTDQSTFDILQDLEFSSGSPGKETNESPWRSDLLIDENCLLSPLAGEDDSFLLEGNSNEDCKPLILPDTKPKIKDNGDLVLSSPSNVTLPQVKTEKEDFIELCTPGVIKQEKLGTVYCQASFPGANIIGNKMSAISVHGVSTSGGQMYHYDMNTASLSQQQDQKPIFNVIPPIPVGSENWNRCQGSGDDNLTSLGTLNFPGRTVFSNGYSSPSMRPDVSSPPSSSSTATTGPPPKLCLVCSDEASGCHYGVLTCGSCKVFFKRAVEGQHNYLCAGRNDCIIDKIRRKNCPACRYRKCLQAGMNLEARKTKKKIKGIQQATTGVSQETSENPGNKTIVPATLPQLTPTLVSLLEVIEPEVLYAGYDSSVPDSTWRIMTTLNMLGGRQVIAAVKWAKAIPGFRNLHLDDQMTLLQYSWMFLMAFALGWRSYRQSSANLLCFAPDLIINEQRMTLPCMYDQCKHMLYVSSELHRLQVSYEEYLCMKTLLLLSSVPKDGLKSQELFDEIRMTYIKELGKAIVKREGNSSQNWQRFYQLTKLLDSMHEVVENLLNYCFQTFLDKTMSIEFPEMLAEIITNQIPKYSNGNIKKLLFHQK
UniProt Q62666, whole entry: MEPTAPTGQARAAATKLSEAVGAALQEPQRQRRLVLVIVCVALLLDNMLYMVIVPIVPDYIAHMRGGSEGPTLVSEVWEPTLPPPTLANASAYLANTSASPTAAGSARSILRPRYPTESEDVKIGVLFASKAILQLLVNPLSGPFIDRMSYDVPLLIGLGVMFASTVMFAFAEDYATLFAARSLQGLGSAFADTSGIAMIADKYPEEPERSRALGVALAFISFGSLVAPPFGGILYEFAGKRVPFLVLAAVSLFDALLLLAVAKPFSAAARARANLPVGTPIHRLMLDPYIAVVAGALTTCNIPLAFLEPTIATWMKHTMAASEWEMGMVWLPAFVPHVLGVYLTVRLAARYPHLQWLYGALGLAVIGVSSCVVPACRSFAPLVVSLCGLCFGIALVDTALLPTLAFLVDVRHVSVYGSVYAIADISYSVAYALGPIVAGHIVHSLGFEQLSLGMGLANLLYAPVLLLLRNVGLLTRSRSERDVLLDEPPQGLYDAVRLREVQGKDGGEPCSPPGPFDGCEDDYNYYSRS
UniProt P36888, 27-993 limits assumed: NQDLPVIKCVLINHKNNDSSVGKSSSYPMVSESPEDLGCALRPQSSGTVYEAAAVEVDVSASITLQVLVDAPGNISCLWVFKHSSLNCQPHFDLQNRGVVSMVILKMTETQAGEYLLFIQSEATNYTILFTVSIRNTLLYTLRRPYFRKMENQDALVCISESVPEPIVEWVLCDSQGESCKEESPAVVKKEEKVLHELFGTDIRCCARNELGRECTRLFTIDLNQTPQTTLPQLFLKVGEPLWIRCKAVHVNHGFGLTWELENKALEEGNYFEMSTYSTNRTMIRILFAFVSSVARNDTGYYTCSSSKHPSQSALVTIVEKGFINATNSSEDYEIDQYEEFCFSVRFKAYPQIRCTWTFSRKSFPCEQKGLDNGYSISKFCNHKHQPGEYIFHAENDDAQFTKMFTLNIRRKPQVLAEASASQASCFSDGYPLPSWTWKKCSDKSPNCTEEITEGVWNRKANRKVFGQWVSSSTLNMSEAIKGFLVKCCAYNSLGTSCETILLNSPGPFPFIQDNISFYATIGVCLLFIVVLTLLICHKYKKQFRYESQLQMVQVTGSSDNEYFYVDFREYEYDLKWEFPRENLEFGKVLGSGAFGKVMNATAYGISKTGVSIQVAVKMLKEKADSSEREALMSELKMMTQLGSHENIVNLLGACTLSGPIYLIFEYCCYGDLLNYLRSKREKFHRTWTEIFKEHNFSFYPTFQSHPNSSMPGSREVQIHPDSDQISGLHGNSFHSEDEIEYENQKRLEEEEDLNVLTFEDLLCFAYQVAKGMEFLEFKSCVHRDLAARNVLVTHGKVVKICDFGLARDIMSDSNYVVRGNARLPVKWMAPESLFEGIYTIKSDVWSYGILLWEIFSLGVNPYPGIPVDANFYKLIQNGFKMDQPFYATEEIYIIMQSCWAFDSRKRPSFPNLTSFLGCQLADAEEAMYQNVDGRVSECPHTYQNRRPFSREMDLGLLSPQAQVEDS
UniProt Q13304, whole entry: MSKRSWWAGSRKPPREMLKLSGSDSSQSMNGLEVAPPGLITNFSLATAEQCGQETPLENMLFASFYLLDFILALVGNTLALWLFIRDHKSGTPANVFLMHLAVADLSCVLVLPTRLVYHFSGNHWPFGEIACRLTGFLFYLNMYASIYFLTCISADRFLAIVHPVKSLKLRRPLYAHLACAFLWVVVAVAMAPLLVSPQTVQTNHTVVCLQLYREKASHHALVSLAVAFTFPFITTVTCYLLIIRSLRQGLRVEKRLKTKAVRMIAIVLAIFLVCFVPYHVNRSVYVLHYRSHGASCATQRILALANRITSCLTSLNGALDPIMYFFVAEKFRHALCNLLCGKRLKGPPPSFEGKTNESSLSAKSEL
UniProt P29317, 28-206 limits assumed: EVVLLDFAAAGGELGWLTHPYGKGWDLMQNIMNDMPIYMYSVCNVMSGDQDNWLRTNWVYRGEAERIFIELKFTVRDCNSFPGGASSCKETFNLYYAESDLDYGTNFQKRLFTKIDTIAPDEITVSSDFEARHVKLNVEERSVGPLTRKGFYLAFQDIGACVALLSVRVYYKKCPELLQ
UniProt P10636, whole entry, looked up: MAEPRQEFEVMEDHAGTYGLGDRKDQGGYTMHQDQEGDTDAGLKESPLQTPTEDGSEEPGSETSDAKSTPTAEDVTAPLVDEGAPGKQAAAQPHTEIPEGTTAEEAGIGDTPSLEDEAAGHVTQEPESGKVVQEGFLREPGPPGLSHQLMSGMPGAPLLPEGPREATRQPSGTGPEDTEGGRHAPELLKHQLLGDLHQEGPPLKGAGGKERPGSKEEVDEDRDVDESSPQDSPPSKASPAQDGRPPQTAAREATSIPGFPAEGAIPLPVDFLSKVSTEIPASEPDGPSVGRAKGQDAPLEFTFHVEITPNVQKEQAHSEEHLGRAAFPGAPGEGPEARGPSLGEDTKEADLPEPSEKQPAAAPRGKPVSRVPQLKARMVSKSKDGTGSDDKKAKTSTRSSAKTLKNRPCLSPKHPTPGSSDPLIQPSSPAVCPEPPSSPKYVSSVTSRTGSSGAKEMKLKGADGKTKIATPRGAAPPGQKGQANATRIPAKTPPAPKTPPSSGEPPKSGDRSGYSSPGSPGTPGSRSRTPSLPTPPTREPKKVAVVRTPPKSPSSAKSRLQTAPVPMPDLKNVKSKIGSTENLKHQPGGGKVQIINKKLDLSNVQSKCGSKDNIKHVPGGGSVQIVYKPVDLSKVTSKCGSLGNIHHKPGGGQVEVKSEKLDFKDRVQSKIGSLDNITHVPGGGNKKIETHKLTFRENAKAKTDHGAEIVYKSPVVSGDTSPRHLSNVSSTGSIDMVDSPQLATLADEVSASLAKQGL
UniProt Q04759, whole entry: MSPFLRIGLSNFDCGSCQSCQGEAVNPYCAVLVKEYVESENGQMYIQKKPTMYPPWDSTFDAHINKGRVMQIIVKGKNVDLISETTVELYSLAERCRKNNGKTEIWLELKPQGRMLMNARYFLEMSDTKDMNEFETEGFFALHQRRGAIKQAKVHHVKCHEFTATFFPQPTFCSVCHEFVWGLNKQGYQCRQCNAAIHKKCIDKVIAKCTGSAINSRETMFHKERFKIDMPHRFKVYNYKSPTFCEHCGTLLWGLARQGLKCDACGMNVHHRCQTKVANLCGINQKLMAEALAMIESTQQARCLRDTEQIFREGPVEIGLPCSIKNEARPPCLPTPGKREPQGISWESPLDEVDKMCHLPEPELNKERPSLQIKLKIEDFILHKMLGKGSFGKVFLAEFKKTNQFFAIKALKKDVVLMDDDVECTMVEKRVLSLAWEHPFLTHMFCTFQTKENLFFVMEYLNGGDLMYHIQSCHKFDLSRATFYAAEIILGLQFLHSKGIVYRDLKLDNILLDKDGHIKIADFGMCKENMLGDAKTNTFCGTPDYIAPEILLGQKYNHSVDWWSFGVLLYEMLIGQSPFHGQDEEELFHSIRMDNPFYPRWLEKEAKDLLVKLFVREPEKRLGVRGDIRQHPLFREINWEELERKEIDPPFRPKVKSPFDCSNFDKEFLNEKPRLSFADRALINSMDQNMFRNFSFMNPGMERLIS
UniProt O00519, whole entry: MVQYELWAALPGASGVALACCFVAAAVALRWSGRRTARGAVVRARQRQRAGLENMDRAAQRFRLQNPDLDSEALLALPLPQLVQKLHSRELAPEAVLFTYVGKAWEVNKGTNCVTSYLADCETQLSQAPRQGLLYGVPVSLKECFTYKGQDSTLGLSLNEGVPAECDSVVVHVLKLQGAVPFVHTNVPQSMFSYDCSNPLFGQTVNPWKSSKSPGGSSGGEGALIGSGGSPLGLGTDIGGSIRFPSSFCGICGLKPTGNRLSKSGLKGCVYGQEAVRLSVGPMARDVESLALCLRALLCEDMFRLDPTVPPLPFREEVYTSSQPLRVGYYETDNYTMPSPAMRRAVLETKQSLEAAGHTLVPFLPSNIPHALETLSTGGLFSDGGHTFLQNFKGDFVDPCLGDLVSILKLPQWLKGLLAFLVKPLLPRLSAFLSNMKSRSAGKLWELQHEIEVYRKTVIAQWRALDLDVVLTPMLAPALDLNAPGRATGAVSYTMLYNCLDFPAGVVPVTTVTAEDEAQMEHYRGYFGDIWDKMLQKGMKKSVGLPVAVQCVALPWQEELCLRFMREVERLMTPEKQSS
UniProt O14920, whole entry: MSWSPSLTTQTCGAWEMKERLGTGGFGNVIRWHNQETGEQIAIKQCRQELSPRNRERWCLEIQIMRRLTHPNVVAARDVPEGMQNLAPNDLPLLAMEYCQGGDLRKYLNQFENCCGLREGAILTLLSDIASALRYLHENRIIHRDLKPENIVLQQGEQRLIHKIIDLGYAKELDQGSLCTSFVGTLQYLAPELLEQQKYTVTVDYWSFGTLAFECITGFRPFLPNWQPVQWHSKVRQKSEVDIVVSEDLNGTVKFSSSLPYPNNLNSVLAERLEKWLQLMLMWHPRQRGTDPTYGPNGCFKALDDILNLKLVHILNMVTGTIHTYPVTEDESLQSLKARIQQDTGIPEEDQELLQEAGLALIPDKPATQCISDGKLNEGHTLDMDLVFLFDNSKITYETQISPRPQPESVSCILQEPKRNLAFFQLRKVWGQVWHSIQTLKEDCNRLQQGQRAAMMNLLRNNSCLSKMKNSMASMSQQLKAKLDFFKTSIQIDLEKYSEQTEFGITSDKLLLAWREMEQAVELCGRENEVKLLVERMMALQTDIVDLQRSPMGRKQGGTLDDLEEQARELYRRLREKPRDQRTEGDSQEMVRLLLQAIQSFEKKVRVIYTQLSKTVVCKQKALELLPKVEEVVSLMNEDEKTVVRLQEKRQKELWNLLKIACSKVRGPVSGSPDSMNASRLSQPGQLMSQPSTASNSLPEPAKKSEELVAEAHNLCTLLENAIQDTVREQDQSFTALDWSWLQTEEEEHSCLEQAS
UniProt Q9CZP5, whole entry, looked up: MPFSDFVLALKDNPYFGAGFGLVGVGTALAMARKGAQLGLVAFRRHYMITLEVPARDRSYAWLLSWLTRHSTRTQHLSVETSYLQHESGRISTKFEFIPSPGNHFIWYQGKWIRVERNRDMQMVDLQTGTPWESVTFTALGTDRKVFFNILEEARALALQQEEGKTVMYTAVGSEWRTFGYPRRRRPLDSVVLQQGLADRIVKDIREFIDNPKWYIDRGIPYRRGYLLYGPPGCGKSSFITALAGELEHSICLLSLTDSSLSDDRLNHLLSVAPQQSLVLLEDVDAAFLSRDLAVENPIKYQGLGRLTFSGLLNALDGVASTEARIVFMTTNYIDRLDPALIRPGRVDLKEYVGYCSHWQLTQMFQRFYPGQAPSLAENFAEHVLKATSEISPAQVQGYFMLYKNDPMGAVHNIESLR

`C[C@H](NC(=O)[C@H](CCCCN)NC(=O)[C@H](CO)NC(=O)[C@H](CO)NC(=O)[C@H](CCC(N)=O)NC(=O)[C@H](CO)NC(=O)CN)C(=O)N1CCC[C@H]1C(=O)O` has a Km of 11.7 µM (NMT1; substrate).
Under ezrin phosphorylation, `O=C1C=C(NCCc2cc(Br)c(O)c(Br)c2)C(=O)c2ncccc21` is recorded as “inhibited” (Ezrin (Ezr, Mus musculus, UniProt P26040); inhibitor, immunoprecipitation and immunoblotting, measured: endogenous ezrin threonine 567; K7M2 mouse osteosarcoma cells; 10 µM, 6 h).
With `Cc1c(O)cc2c(c1C)O[C@](C)(CCCC(C)C)CC2` the IC50 was ~40 µM (normal prostate epithelial cells; cell viability, MTT; 24 h).
`CC1=Cc2ccccc2C12CCN(C1Cc3ccccc3CC1O)CC2` (single isomer, unassigned) gave a selectivity ratio of 29 (Vesicular acetylcholine transporter (Rattus norvegicus, UniProt Q62666); reference: Ki sigma1 (human) over Ki VAChT).
`Nc1c(C(=O)Nc2c(F)cc(F)cc2Br)sc2nc3c(cc12)CCC3`: GSSG level “increased” (H1299; concentration not given, 12 h).
Under “residual probe binding”, `CCN1CCN(Cc2ccc(NC(=O)c3ccc(C)c(Oc4ncnc5cc(OC)c(OC)cc45)c3)cc2C(F)(F)F)CC1` is recorded as 0.6% (FLT3 (Homo sapiens, UniProt P36888); KINOMEscan competition binding; 1.0 µM).
The G1-phase cells of `Cc1cccc(NC(=O)c2nn(Cc3cnc[nH]3)c3c2CN(C(=O)c2ccc[nH]2)CC3)c1` is reported as 30.6 ± 8.9% (IDH1 R132C AML cells; Hoechst/Pyronin Y staining; 3 µM, 7 days).
`O=C(Nc1ccc(Cl)cc1)C(NS(=O)(=O)c1cccs1)c1ccccc1` (single isomer, unassigned) has an Emax of 94.1 ± 3.22% (Uracil nucleotide/cysteinyl leukotriene receptor, long isoform (GPR17, Homo sapiens, UniProt Q13304); calcium mobilization, antagonist; 1321N1 stably expressing GPR17; fitted at highest concentration; higher = stronger inhibition).
Under “dose for near-complete inhibition”, `O=C(ON1C(=O)C2CN(C(=O)N3CCOCC3)CCN2C1=O)N1CCC(CCc2ccc(Cl)cc2)CC1` (stereo not shown) is recorded as 5 mg/kg (Acyl-protein thioesterase 2 (Mus musculus, UniProt Q9WTL7); enzyme activity, inhibitor, gel-based ABPP; C57BL/6 mice, liver and kidney; intraperitoneal, 4 h, not brain).
The Hill slope of `CN1CCC[C@H](C(=O)OCC(=O)[C@]2(O)CC[C@@H]3[C@H]4CCC5=CC(=O)CC[C@@]5(C)[C@H]4[C@@H](O)C[C@]32C)C1` is reported as 1.26 (NR3C1; nuclear translocation, agonist, enzyme fragment complementation).
Under inhibition, `CC(C)C[C@@H](NC(=O)[C@H](O)Cc1ccccc1)C(=O)N1[C@H](C(=O)NCCC2=CCN(C(=N)N)C2)C[C@@H]2CC[C@@H](O[C@H]3OC[C@@H](O)[C@H](O)[C@H]3O)C[C@@H]21` is recorded as “no inhibition” (Plasminogen (PLG, Homo sapiens, UniProt P00747); enzyme activity; 100 µg/mL).
With `CC(=O)[C@]1(O)CC[C@@H]2[C@H]3C[C@@H](C)C4=CC(=O)CC[C@@]4(C)[C@H]3[C@@H](O)C[C@]21C` the maximal activity was 90% (NR3C1; nuclear translocation, agonist, enzyme fragment complementation).
For `COC(=O)c1c(O)cc(O)c(Cl)c1CCc1cccc(O)c1Cc1ccccc1`, the selectivity ratio was 4 fold (Endoplasmin (HSP90B1, Canis lupus familiaris, UniProt P41148); fluorescence polarization; with: FITC-geldanamycin tracer; reference: Grp94 over Hsp90α).
`Cn1cc2c(nc(NCCCCCNC(=S)Nc3ccc(-c4c5ccc(=O)cc-5oc5cc(O)ccc45)c(C(=O)O)c3)n3nc(-c4ccco4)nc23)n1` gave an inhibition of 9 ± 5% (ADORA1; binding; CHO; 10 µM, with: [3H]R-PIA).
For `COc1ccc2[nH]cc(CCNC(=O)[C@H](Cc3ccncc3)NC(=O)[C@H](Cc3ccc(Cl)cc3)NC(=O)[C@H](Cc3c[nH]c4ccc(O)cc34)NC(=O)CCCN)c2c1`, Kd read “inactive” (EPHA2 (Homo sapiens, UniProt P29317); binding, isothermal titration calorimetry).
The maximal activity of `C[C@]1(c2ccccc2)O[C@@H]2C[C@@H]3[C@@H]4CCC5=CC(=O)C=C[C@@]5(C)[C@]4(F)[C@H](O)C[C@]3(C)[C@@]2(C(=O)CO)O1` is reported as 85% (NR3C1; nuclear translocation, agonist, enzyme fragment complementation).
The specific binding of `Fc1cc(-c2ccc3c(n2)[nH]c2ccncc23)ccn1` [isotope labelled] is reported as 5.41 a.u. (Microtubule-associated protein tau, paired helical filaments (MAPT, Homo sapiens, UniProt P10636); radioligand binding; PHF tau brain homogenate; 4.94 nM; higher = more binding).
`C[C@H](NC(=O)[C@H](CCCCN)NC(=O)[C@H](CO)NC(=O)[C@H](CO)NC(=O)[C@H](CCCCN)NC(=O)[C@H](CCCNC(=N)N)NC(=O)CN)C(=O)N[C@@H](CCCCN)C(=O)O` gave a Km of 1.2 µM (NMT1; substrate).
Under “human alpha-4 level”, `Cc1ccc([C@H](CC(=O)O)NC(=O)Nc2c(O)c(C)cn(Cc3ccccc3Cl)c2=O)cc1` is recorded as “decreased” (flow cytometry MFI; LAX7R xenograft, NSG mouse, bone marrow leukemic cells; intraperitoneal, 60 mg/kg, 8 h; reference: PBS).
For `Fc1cccc(-n2cnc3c(NCc4nc5cc(Cl)ccc5[nH]4)nc(N4CCNCC4)nc32)c1`, the remaining binding was 5% (PRKCQ (Homo sapiens, UniProt Q04759); KINOMEscan competition binding; 10 µM; reference: control).
The degradation of `O=C1CCC(N2C(=O)c3cccc(NCCOCCOCCOCCN4CCN(c5ccc(-c6ccc7c(c6)C(=O)N(C(C(=O)Nc6nccs6)c6ccccc6)C7)cn5)CC4)c3C2=O)C(=O)N1` (stereo not shown) is reported as 71% (EGFR (Homo sapiens, UniProt P00533, L718Q/L858R/T790M); degrader, Western blot; Ba/F3 EGFR L858R/T790M/L718Q; 0.1 µM, 24 h).
`O=C(Nc1cccnn1)N1CC(Oc2ccc(-c3ccccc3F)cn2)C1` — result for “dose for complete inhibition”: 50 mg (FAAH (Homo sapiens, UniProt O00519); enzyme activity, inhibitor; healthy humans, blood; oral, dose not given, repeated dosing).
With `N[C@H]1C=C(C(=O)O)CC[C@@H]1F` the KI was 31 ± 7 µM (OAT (Homo sapiens, UniProt P04181); enzyme inactivation, mechanism-based inactivator).
`CCCn1c(=O)c2[nH]c(-c3ccc(OCC(=O)NCCNC(=O)CCCCCNC(=O)COc4ccc(/C=C/C5=[N+]6C(=Cc7ccc(-c8cccs8)n7[B-]6(F)F)C=C5)cc4)cc3)nc2n(CCC)c1=O` has a Bmax of 56 ± 5% (ADORA1; NanoBRET saturation binding; HEK293T expressing NanoLuc-tagged receptor; reference: maximum signal).
For `COc1cc(CC(=O)NCC(NC(=O)C(CCCNC(=O)c2cccc(I)c2)NC(=O)C(Cc2ccc(C(F)(F)P(=O)(O)O)cc2)NC(=O)c2ccc(C)c(Br)c2)C(N)=O)ccc1O` (stereo not shown), inhibition read “no inhibition” (PTPN7 (Homo sapiens, UniProt P35236); enzyme activity; 10 µM).
With `CC(C)C[C@H](NC(=O)[C@H](CCC(N)=O)NC(=O)[C@H](CCC(N)=O)NC(=O)[C@H](CO)NC(=O)[C@H](C)NC(=O)[C@H](CCCCN)NC(=O)[C@H](CCC(N)=O)NC(=O)CN)C(=O)O` the Km was 15.7 µM (NMT1; substrate).
With `CC[C@@H]1C(=O)N(C)c2cnc(Nc3ccc(C(=O)NC4CCN(C)CC4)cc3OC)nc2N1C1CCCC1` the delta Tm was -0.11 ± 1.04 °C (ASH1L (Homo sapiens, UniProt Q9NR48); 10 µM).
`CC(C)[C@H](NC(=O)[C@H](CCCNC(=N)N)NC(=O)[C@H](CO)NC(=O)CN)C(=O)N[C@@H](CO)C(=O)N[C@@H](CCCNC(=N)N)C(=O)N[C@@H](CCC(=O)O)C(=O)N[C@@H](CC(=O)O)C(=O)O` gave a Km of 79.2 µM (NMT1; substrate).
Under kinase inhibition, `O=C(/C=C/c1nc2ccccc2[nH]1)c1c(-c2ccccc2)c2cc(Cl)ccc2[nH]c1=O` is recorded as “inhibited” (IKBKB (Homo sapiens, UniProt O14920); SelectScreen profiling; concentration not given, panel of 100 kinases).
The Km of `CSCC[C@H](NC(=O)[C@@H](NC(=O)[C@H](CCC(=O)O)NC(=O)CN)[C@@H](C)O)C(=O)N[C@@H](CO)C(=O)N[C@@H](CCCCN)C(=O)N[C@@H](CCCNC(=N)N)C(=O)N[C@@H](CC(C)C)C(=O)O` is reported as 13 µM (NMT1; substrate).
The Km of `Nc1ncnc2c1ncn2[C@@H]1O[C@H](COP(=O)(O)OP(=O)(O)OP(=O)(O)O)[C@@H](O)[C@H]1O` is reported as ~0.2 µM (Bcs1l (Mus musculus, UniProt Q9CZP5); conformational turnover, HS-AFM line scanning; ambient, 20% cardiolipin membrane).

For quick reference, copied from above:
The specific binding of `Fc1cc(-c2ccc3c(n2)[nH]c2ccncc23)ccn1` [isotope labelled] is reported as 5.41 a.u. (Microtubule-associated protein tau, paired helical filaments (MAPT, Homo sapiens, UniProt P10636); radioligand binding; PHF tau brain homogenate; 4.94 nM; higher = more binding).
For `Fc1cccc(-n2cnc3c(NCc4nc5cc(Cl)ccc5[nH]4)nc(N4CCNCC4)nc32)c1`, the remaining binding was 5% (PRKCQ (Homo sapiens, UniProt Q04759); KINOMEscan competition binding; 10 µM; reference: control).
